{"data": "Measured values gathered from unrelated publications", "note": "Numbered parts are unrelated; each lists some results of a single study."}
{"data": "Set 1", "target": "Phosphate system positive regulatory protein PHO4, full length, GST-tagged (PHO4, Saccharomyces cerevisiae, UniProt P07270, residues 1-312)", "technique": "competition protein-binding microarray", "molecule type": "double-stranded DNA, one strand shown", "matrix": "in vitro", "tested at": "2 µM", "setting": "whole 60-bp probe, lowest competitor level", "with": "Cbf1 competitor, 0.05 µM", "reading": "higher = stronger binding", "shared flanks, not repeated": "… GTCTTGATTCGCTTGACGCTGCTG", "Construct (chain)": "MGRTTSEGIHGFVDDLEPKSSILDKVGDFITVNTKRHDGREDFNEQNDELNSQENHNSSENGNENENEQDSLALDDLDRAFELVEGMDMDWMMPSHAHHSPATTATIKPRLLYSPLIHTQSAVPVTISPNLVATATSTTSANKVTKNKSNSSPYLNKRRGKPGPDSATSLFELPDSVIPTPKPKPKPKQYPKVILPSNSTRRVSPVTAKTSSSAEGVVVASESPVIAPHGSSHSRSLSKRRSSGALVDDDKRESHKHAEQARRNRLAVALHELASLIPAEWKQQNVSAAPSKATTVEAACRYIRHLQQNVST"}
{"Oligonucleotide": "TAATCAATGGGTTTGCATGTGGTAATCAATTGATAA", "fluorescence intensity [a.u.]": 9360}
{"Oligonucleotide": "ATCTTTCGGAATTGTGAGGTGCAGGGATGCGGACTT", "fluorescence intensity [a.u.]": 4500}
{"Oligonucleotide": "TGCGCAACAACTTGGCAGGTGGGTGTATGTCTAGAA", "fluorescence intensity [a.u.]": 6360}
{"Oligonucleotide": "GTAATACATTTTCATCACATGAGAGTGTTCATTCAA", "fluorescence intensity [a.u.]": 5800}
{"Oligonucleotide": "AAAGCGGTAATTTGCAATGTGGGTGCAGATATCTAT", "fluorescence intensity [a.u.]": 6170}
{"Oligonucleotide": "AAAGTTTTCAACCTCCACGTGTTCCTTAGTTTCCCT", "fluorescence intensity [a.u.]": 21300}
{"data": "Set 2", "target": "RNA binding protein fox-1 homolog 2, RRM domain, GST-SBP tag (RBFOX2, Homo sapiens, UniProt O43251-10, residues 100-194)", "technique": "RNA Bind-n-Seq", "molecule type": "RNA", "matrix": "in vitro", "tested at": "365 nM", "setting": "natural RNA segment, single round, ends assumed", "baseline": "no-protein control", "reading": "higher = stronger binding", "shared flanks, not repeated": "GGGAGUUCUACAGUCCGACGAUC … UGGAAUUCUCGGGUGCCAA", "Target sequence (chain)": "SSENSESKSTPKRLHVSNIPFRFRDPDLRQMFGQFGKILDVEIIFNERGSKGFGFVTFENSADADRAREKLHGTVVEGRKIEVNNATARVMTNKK"}
{"Oligonucleotide": "AAAGUGAAAUGCCACUUAGUUCUCAAUUGAUGACAGUGUUUGAAUCAUCAUAAAAAAAAUACCUGCUUUUCAUCUGGACAACCCAAUUGAGCCACUUUAUCUCCUUUUGG", "RBNS enrichment (R)": 0.436}
{"Oligonucleotide": "CAGAACUAUAAAGAUAAUUAGAGUUAAAAGUUGUUUAAAUUGUGCCCUUAAAUACAGCAGAACCUGGAGAAGGUCAUACUUCAAAGGUCGAUUUUGAGUCCGAAUAAAGA", "RBNS enrichment (R)": 0.304}
{"Oligonucleotide": "CCCUAGCCACGUCCCCAGGUACUACAGUCCACUGCAAGCCUGCUCACCUCUGCCUGGAAGAGCUUGGACCAGAAACGACCUCCUCCUCUCUGUGUGUUGGAGGGAGAGGA", "RBNS enrichment (R)": 0.874}
{"Oligonucleotide": "GGUUGCUGCUGAAGGAGGAGGCAGCAGCGAGGUCCUGCGGUACCCAUGGGGUGAUGCUACUUCUGCAUGCAUCUACAGGGCAUCUGACACCUAACAUGAGACGUGGCAUG", "RBNS enrichment (R)": 6.47}
{"Oligonucleotide": "GUUUGCCUCUGCUGACUCCUGGCAUCACCUCCUGGGACACUUGCUGUCUUUUUUACUUGUCUCAUUUUCUUUCACAGCACUGAGGUCUCACCAAAUUUUCUAAUUUUUAU", "RBNS enrichment (R)": 0.556}
{"Oligonucleotide": "CAAAAUAUACCAUAGGCUAAAACUAAGGCUUUCACUCUAGAAUGCAAAGCUGUUUUGCAGCUGUUUUCCCUUAAAGAUGUCCUGUUGCUUUAGUGAUAUUUAGACCCCUC", "RBNS enrichment (R)": 0.33}
{"Oligonucleotide": "CCUCACUUACUUCUUAUGAAGUUGGCAUUACCUGAGACUCUUAGCUGUGAUUAGGUACAAGCUUACCUUUUAGGGUAGAAAAAGAAAGAUCAUUUGAAAAAUGUAUCUAA", "RBNS enrichment (R)": 0.364}
{"data": "Set 3", "target": "Protein C-ets-1 (ETS1, Homo sapiens, UniProt P14921, residues 1-441, K379A, full length assumed)", "technique": "protein-binding microarray", "molecule type": "double-stranded DNA, one strand shown", "matrix": "in vitro", "tested at": "not given", "setting": "k-mer, scored over probes, only values ≥0.25", "reading": "higher = stronger binding", "Target sequence (chain)": "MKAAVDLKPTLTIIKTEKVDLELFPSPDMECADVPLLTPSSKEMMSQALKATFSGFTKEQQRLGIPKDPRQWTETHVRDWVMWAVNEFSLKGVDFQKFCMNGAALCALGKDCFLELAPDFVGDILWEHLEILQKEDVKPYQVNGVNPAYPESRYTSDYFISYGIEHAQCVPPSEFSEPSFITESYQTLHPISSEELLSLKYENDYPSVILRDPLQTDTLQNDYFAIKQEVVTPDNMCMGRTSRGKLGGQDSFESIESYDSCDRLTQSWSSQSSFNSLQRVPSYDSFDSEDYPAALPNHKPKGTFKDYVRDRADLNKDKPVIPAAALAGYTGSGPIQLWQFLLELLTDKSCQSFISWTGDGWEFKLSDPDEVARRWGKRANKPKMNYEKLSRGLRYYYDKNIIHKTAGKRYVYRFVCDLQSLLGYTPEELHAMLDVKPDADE"}
{"Oligonucleotide": "CCGCGCGG", "E-score": 0.256}
{"Oligonucleotide": "AGGCGGGG", "E-score": 0.315}
{"Oligonucleotide": "AACCCGGT", "E-score": 0.331}
{"Oligonucleotide": "CCGGCGCA", "E-score": 0.255}
{"Oligonucleotide": "ACAATACC", "E-score": 0.319}
{"data": "Further values, each from its own experiment"}
{"Molecule": "PhoQ, residues 284 288 289 292 302 303 SMYGEC", "target": "PhoP, residues 12 14 15 18 19 LHHVQ (Escherichia coli, UniProt P23836)", "test": "Sort-seq, measured: YFP reporter", "system": "E. coli", "conditions": "PhoQ-PhoP variant library, with: 10 µM Mg2+", "scale": "baseline: high Mg2+ state, higher = stronger signaling", "quantity": "fold induction", "result": 6.79}
{"note": "Some of these lines once more (set 2):"}
{"Oligonucleotide": "AAAGUGAAAUGCCACUUAGUUCUCAAUUGAUGACAGUGUUUGAAUCAUCAUAAAAAAAAUACCUGCUUUUCAUCUGGACAACCCAAUUGAGCCACUUUAUCUCCUUUUGG", "RBNS enrichment (R)": 0.436}
{"Oligonucleotide": "CAGAACUAUAAAGAUAAUUAGAGUUAAAAGUUGUUUAAAUUGUGCCCUUAAAUACAGCAGAACCUGGAGAAGGUCAUACUUCAAAGGUCGAUUUUGAGUCCGAAUAAAGA", "RBNS enrichment (R)": 0.304}
{"Oligonucleotide": "CCCUAGCCACGUCCCCAGGUACUACAGUCCACUGCAAGCCUGCUCACCUCUGCCUGGAAGAGCUUGGACCAGAAACGACCUCCUCCUCUCUGUGUGUUGGAGGGAGAGGA", "RBNS enrichment (R)": 0.874}
